Measured values collected from several papers.
Numbered parts are unrelated; each lists some results of a single study.

Sample 1 — method: aptamer microarray, sandwich; form: DNA with 2'F-ANA; medium: in vitro; tested at: 200 nM; together with: Cy3 exosite-II aptamer, 400 nM; reading: higher = stronger binding; oligonucleotide: GGTTGGTGTGGTTGG
Target: Prothrombin, mature alpha-thrombin (F2, Homo sapiens, UniProt P00734)
Setting: whole 15-mer aptamer, many near background
For `2'F-ANA at 1 2 3 4 6 7 8 9 13 14 15`, “mean fluorescence intensity” read 70.5 a.u.
Under “mean fluorescence intensity”, `2'F-ANA at 1 2 3 5 10 12 15` is recorded as 51.2 a.u.
`2'F-ANA at 3 5 7 8 9 13`: “mean fluorescence intensity” 99.1 a.u.
`2'F-ANA at 5 6 7 9 14 15`: “mean fluorescence intensity” 44.5 a.u.
`2'F-ANA at 1 5 9 12 13 14`: “mean fluorescence intensity” 45.3 a.u.
Under “mean fluorescence intensity”, `2'F-ANA at 1 2 4 6 7 8 9 13 15` is recorded as 92.2 a.u.
Under “mean fluorescence intensity”, `2'F-ANA at 1 3 4 8 9 10 12 14` is recorded as 51.6 a.u.
`2'F-ANA at 1 2 3 5 6 7 9 10 11 13 14 15`: “mean fluorescence intensity” 71.2 a.u.
`2'F-ANA at 6 7 8 11`: “mean fluorescence intensity” 545 a.u.
Under “mean fluorescence intensity”, `2'F-ANA at 1 2 4 7 8 11 14 15` is recorded as 56.5 a.u.
For `2'F-ANA at 2 4 6 10 12`, “mean fluorescence intensity” read 124 a.u.
`2'F-ANA at 1 4 7 8 11 14 15` — result for “mean fluorescence intensity”: 55.8 a.u.
`2'F-ANA at 1 2 6 7 9 10 11 14` — result for “mean fluorescence intensity”: 45.2 a.u.
For `2'F-ANA at 1 3 5 7 8 9 12 15`, “mean fluorescence intensity” read 131 a.u.
Under “mean fluorescence intensity”, `2'F-ANA at 1 3 4 7 8 10 13` is recorded as 56.6 a.u.
`2'F-ANA at 1 4 7 8 10 11 12 15`: “mean fluorescence intensity” 112 a.u.
`2'F-ANA at 2 3 4 5 6 8 9 12 14` — result for “mean fluorescence intensity”: 55.2 a.u.

Sample 2 — method: RNA Bind-n-Seq; form: RNA; medium: in vitro; tested at: 100 nM; baseline: input RNA pool; reading: higher = stronger binding
Target: RING finger protein unkempt homolog, zinc fingers 1-6, SBP tag (UNK, Homo sapiens, UniProt Q9C0B0, residues 30-357)
Sequence of UniProt Q9C0B0 (30-357, looked up): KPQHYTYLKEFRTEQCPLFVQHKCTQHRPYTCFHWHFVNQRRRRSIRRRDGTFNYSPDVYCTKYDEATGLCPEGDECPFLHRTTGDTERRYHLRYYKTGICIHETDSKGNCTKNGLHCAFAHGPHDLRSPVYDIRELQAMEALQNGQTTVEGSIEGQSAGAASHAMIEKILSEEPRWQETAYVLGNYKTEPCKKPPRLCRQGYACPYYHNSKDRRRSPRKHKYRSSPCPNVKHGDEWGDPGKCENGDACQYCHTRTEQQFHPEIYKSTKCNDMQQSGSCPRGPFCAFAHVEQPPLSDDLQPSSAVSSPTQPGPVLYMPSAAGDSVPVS
Setting: RNA with constant flanks, vertebrate orthologous sites, ends assumed
The bound/input enrichment of `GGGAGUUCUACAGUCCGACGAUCCAGCUGAUUCACUCAUUGGGAGAGCUGCACAUAUAGCCGUUCUUGAUUCAGAAAUAUUUUUAGAGAAAUUCUUUCUGGUUGCUGCCCUCAAGUAUUUCCAAUAGGAUAAAAACAUUGUUACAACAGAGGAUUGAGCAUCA` is reported as 1.02 ratio.
`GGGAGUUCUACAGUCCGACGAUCUAUUAGUGUCAUACCAGCAUAUUAACCUCUCGUCUGUGCACAGCUUCAAAUGUUACCGUCUAGUUAGAUUUUUAUUUAAAAUAUGAAAAACUGCUUUUCCCAAGACGUUUUUUAAAAAACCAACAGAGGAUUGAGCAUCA` has a bound/input enrichment of 1.44 ratio.
The bound/input enrichment of `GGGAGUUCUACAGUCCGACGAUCAUUCAAACCUGUGGUGCCCUGGCCCCAUGUGGAAGGGGUGGAAGUGGACUUGGAGUCUAUUAGAAGAAAAAACAAAGCCAAAAAUGAACAAGAGCAUCAAGCUGGGGGUAUCAACCAGCACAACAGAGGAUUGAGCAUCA` is reported as 0.402 ratio.
`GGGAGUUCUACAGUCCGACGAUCGACGCUUUGAUGUAAAAUUUGAAAUAAAGAGCAGCUGAUCACAAGCACAAUCUUCCCCCUUAGCCAUUUAAAAAAGUUAAAAAAUUAUAAAAAACAAAAACCUACUAGUCUUGAACAAACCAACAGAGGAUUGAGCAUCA` has a bound/input enrichment of 2.99 ratio.
`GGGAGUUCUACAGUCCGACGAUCGCUGUGGGAAACGAGCUUUGCUUUUAUAUAUAUAUAUAUAUAUAUAUAUAUAUAUUUAAAUAGGAUACUUUUAUAUGAUGGGUGCUUUGAGUGUGAAUGCAGCAGGCUCUAUCUCAGAGGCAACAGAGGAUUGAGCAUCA` has a bound/input enrichment of 1.64 ratio.
For `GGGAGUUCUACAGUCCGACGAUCCUAUUUAAAUGUUUAAAUUAUAUUUAAUUACCUCAUUCCUGUUCUUUUUCCUUACUGAAAUAGUUUUCAUCUCUAUUAUUGCAAAUAACCUAAAGUUUCUACUUUAGGCUAACUUGUUUUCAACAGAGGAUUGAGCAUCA`, the bound/input enrichment was 0.725 ratio.
`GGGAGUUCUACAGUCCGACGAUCUUUUAAAGUCACUUUUCCCAUUUCUUGUAAAUAGUGGAUAAUCAUUUUUAUUUUAUUUUUAAGUGCUGUUUUAACAUAUGGAUAGAUCAUAAAUGUACUUGCUGAAUUUAUUCAUGUUUUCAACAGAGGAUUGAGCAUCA` gave a bound/input enrichment of 0.381 ratio.
With `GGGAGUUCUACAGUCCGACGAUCCCUAAAAUUAUAGCAGAAGAGCCAAGCAGUAGCAGUUUUUUUUGUAAAUUUAAAAAUAAUUAGAUCCAGACUUUGUUUCCUUCUUCAAUUUUAAAAAUAAAAAAUACCUCAGUGCUGUGUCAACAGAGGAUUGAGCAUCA` the bound/input enrichment was 0.794 ratio.
For `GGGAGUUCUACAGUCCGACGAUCUCCUCAACUUGUUCUAGCUUGUGAUCCUUCAAAGUUGGGUCAUACGUUAGUGCUAGAUACUAGAAAUUUUCACUUUUCCACUGAUCAGAGAGACAGACAUUAAAAACAAAAAUAGAAGAACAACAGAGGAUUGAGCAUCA`, the bound/input enrichment was 3.16 ratio.
`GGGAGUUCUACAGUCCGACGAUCGUCAUCUGACUGGAUGAAGACUGUUCCAAGUUACAACCAAACAAAUAGCUCCAUGGACUUUAGAAAUUAUAUGAUGAGGGAUGAGACUCUGGAACCACUGCCUAAAAACUGGGAAAUGGCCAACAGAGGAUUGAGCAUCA` gave a bound/input enrichment of 1.35 ratio.
With `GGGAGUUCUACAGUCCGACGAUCAGAGAAUUUUAAUCAAGAAUCUGAAAGUAGAAAUACAGGACCAUGGUUAUCUUCCUCACUUAGAAAUAGAUGCACACCUUUGUUCUCCAGAAGGCGGCGAGAGGGACGAGAUGAAUCUUCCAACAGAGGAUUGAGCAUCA` the bound/input enrichment was 1.14 ratio.

Sample 3 — method: RNA Bind-n-Seq; form: RNA; medium: in vitro; tested at: 365 nM; baseline: no-protein control; reading: higher = stronger binding
Target: RNA binding protein fox-1 homolog 2, RRM domain, GST-SBP tag (RBFOX2, Homo sapiens, UniProt O43251-10, residues 100-194)
Setting: natural RNA segment, single round, ends assumed
Construct (chain): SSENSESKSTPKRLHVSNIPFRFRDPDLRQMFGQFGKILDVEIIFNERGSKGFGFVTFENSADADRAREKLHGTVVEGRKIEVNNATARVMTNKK
`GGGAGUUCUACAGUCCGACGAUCAGGAAAUUCUAGUACAAAGGGAAAAUAGCCAUAAUGUGGUAAUGUAAAAAAUGCUAUCUCCCUAUUAUUUCUGUUUUAUAUCAUUGUCAAUAAAAGGAAUAUCAUGGUCAUGGAAUUCUCGGGUGCCAA`: “RBNS enrichment (R)” 1.27.
For `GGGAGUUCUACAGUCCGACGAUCGAGAUGUGAGGAUUUAGAUGUUUGCUAACUUCAAAACUGUGCUUGAAUAGACUAAUAAUAUAUGCUCUAUCAGAUGUCAGUUUUCAUUUAACUUGAUUCAUUUUUGGCUCUGGAAUUCUCGGGUGCCAA`, “RBNS enrichment (R)” read 0.351.
Under “RBNS enrichment (R)”, `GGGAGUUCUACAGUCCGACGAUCUGGCUGGCUCUCUGAACAUCAGGAAACCAGGGCCUCCCACCACAAGCCAGCCUCACCAACAACACCAUGUCUGCUCAGCAGUAUGCAGAUAUGUGGGGAUAGUCUCUCAGUGGAAUUCUCGGGUGCCAA` is recorded as 0.503.
`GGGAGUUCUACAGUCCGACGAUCGGCCACCAGGCUCCGAGGGGCCGUGGUGACUCUUGAUCAAAGAGCACAGUGAACUGUCCCUUCUGAGUCUCCCUUUUCUACAGUUGAUAUAUUUGUAACUGGUACAAGAUUGGAAUUCUCGGGUGCCAA`: “RBNS enrichment (R)” 0.235.
For `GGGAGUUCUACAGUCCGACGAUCUGAAACUGCUGUCUCUGAAACUCUUCCUCCAUUAGAGCGCUCCAGUAACCCAUGAAGGCCCACAGCGGGAUGGGACUAGUUUAUAGGAGAGCGUUGUCAAUACCACUUAUUGGAAUUCUCGGGUGCCAA`, “RBNS enrichment (R)” read 0.515.
For `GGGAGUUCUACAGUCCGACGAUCUCUUGACAGUAUAUUUGAAACUGUAAAUAUGUUUGUGCCUUAAAAGGAGAGAAGAAAGUGUAGAUAGUUAAAAGACUGCAGCUGCUGAAGUUCUGAGCCGGGCAAGUCGAUGGAAUUCUCGGGUGCCAA`, “RBNS enrichment (R)” read 1.1.
For `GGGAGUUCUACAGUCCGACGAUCCUCGUACGCAGGCAGAUGACACCUUAUGCCAACAGGGACGCCUGUGAGGCCGAGACCUUGAUGGGAAGAGGAUGCUCCCUUGUUACAAAUAAAGAAGGGCAGUGUGAACCUGGAAUUCUCGGGUGCCAA`, “RBNS enrichment (R)” read 1.24.
`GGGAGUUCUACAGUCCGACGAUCGCCCUCUCGCCAGGCUGGAGUGUAGUGGCACAAUCUCAGCUCACUGCAACCUCCGCAUCCCGGGUUCAAGAGAUUCUGCCUCAGCCUCCAGAGUAGCUGGGACUACAAACUGGAAUUCUCGGGUGCCAA` — result for “RBNS enrichment (R)”: 0.718.
`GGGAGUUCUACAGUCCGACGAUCACAAGGCGUGUGAAGGCUUCCCAGAAGUUCCUGUCCACAUUGCCUCCGCCCACCGACGCCAUGGGCACACUGCUCCCUCCUCCUCCUCCAGCUACUUUGUGUUGAACACAUGGAAUUCUCGGGUGCCAA`: “RBNS enrichment (R)” 0.552.

Sample 4 — method: RNA Bind-n-Seq; form: RNA; medium: in vitro; tested at: 1 µM; setting: whole 134-nt RNA, ends assumed; together with: 150 mM KCl; baseline: input library; reading: higher = stronger binding
Target: Ras GTPase-activating protein-binding protein 1, C-terminal RGG region (G3BP1, Homo sapiens, UniProt Q13283)
Sequence of UniProt Q13283 (whole entry, looked up): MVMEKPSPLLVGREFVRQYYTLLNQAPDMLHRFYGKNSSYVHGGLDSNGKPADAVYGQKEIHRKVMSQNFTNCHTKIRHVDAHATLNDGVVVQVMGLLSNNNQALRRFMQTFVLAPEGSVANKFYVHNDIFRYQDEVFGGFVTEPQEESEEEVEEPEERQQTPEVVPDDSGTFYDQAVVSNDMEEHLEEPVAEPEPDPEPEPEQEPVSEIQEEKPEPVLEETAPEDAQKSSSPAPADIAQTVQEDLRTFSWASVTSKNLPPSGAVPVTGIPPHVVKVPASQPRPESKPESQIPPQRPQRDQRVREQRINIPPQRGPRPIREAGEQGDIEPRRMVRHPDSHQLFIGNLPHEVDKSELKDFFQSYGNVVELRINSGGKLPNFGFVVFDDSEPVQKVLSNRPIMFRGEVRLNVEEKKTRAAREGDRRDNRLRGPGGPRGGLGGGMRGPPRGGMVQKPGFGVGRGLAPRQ
The log2 enrichment of `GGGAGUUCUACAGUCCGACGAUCCUGUGCUACACAUCGUAUGUACCGAAUCGGGGCCCCCCCGGGGCCCCCCCGGGCCCCCCCGGAAAGUAUUAUGUUACGCCGUUCGGAUCUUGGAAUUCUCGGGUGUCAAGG` is reported as -1.9.
The log2 enrichment of `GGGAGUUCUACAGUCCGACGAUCUUAUGGAGUUUGGCCCUGAGGACAUGCUGCUGGGCAUGGAUGAGGCUGAAGAUGAUGAGGACCUGGAGGCUGAGCUGCUGGCUCUCACAGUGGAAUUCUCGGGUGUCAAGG` is reported as -1.27.
The log2 enrichment of `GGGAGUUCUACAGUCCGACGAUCUAACUUUAGAGGAGGAUCUGAUGGAUAUGGCAGUGGACGUGGAUUUGGGGAUGGCUAUAAUGGGUAUGGAGGCGGACCUGGAGGUGGCAAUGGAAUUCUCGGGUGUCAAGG` is reported as -1.08.
With `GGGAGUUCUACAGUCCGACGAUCCUCAAGUCCUGUGCUACACAUCGUAUGUACCGAAUCGGUUGGUUGGGGUUGGGAAAGUAUUAUGUUACGCCGUUCGGAUCUGCACUUCCAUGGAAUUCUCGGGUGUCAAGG` the log2 enrichment was -0.691.
With `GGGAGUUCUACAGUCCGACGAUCGCAGGAAGUAAAAACAAAUGGAAAUGCUUCGGAUAGUGGCAGGGGUGGGGAUUGCUAAGGAAAGGGUGGGAUGGGAGUGGGUAAAGAGUUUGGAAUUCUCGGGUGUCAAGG` the log2 enrichment was 2.01.
`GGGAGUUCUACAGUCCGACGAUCACCAUGCAGGUGGGCGUCUUUGGGAAGUGGGGCAAGGGGGGGAUAGGGAGGGGGGUAACACUUUGGGAACAGGUGGUCCCAGGUCGUUUCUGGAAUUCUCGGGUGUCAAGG` has a log2 enrichment of -1.41.
`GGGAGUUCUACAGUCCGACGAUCGCAGGAAGUAAAAACAAAUGGAAAUGCUUCGGAUAGUGGCAGGGGUGGGGGCUGCUAAGGAAAGGGUGGGAUGGGAGUGGGUAAAGAGUUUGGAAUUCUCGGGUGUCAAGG` gave a log2 enrichment of 0.775.
`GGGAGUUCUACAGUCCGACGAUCAGUCCUGUGCUACACAUCGUAUGUACCGAAUCGGGUUUUUUUGGGAAAGGGAAAGGGAAAGUAUUAUGUUACGCCGUUCGGAUCUGCACUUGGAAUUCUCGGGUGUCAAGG` gave a log2 enrichment of 0.493.
With `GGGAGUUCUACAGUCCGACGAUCUGUGCUACACAUCGUAUGUACCGAAUCGGGGUUUUUUUGGGGAAAAAAAGGGGAAAAAGGGGAAAGUAUUAUGUUACGCCGUUCGGAUCUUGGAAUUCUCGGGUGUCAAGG` the log2 enrichment was 0.0101.
For `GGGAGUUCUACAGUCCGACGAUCGUCCUGUGCUACACAUCGUAUGUACCGAAUCGGGAAAGGGUUUUUUUGGGAAAAAGGGAAAGUAUUAUGUUACGCCGUUCGGAUCUGCACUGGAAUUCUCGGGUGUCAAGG`, the log2 enrichment was -0.61.

Repeated from above (sample 1):
For `2'F-ANA at 2 4 6 10 12`, “mean fluorescence intensity” read 124 a.u.
`2'F-ANA at 1 4 7 8 11 14 15` — result for “mean fluorescence intensity”: 55.8 a.u.
